Measurements gathered from unrelated publications.
Parts stem from different laboratories: compare values within a part only. Changes are numbered by the printed parent chain.
Chain of UniProt Q9C0C9 (whole entry, looked up): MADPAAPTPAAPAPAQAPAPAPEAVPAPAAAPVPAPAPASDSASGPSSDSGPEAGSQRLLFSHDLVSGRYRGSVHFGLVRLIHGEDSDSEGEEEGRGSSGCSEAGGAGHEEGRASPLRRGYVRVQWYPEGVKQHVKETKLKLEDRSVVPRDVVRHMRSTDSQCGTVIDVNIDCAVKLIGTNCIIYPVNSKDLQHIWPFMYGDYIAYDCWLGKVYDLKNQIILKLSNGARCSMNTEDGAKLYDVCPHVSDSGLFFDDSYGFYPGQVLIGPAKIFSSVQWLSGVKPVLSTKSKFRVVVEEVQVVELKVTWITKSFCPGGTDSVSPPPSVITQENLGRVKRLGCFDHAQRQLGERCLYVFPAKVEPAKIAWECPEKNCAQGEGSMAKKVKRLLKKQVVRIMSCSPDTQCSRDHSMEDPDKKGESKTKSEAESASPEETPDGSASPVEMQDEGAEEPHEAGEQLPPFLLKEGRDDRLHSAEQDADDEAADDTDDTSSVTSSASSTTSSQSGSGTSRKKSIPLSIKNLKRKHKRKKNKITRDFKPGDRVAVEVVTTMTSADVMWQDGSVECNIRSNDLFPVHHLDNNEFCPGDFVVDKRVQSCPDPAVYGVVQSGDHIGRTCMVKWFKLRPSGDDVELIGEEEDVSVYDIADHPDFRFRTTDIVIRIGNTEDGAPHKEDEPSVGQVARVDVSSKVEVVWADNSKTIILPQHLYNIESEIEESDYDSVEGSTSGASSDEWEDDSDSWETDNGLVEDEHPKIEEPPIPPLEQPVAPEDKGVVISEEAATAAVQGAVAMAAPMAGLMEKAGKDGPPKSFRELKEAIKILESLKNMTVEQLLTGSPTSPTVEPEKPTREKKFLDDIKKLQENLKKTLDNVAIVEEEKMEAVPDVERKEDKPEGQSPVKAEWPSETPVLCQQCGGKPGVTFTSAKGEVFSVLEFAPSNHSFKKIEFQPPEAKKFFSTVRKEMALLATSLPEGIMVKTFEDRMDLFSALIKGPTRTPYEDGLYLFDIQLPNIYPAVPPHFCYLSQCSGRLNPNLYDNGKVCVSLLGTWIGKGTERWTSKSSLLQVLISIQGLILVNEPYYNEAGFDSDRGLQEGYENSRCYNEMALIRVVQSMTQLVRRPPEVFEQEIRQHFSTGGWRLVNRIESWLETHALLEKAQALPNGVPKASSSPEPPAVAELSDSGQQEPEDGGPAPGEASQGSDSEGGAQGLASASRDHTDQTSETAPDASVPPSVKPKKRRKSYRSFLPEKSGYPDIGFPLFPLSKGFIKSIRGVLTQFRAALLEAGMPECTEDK
Chain of UniProt Q712K3 (whole entry, looked up): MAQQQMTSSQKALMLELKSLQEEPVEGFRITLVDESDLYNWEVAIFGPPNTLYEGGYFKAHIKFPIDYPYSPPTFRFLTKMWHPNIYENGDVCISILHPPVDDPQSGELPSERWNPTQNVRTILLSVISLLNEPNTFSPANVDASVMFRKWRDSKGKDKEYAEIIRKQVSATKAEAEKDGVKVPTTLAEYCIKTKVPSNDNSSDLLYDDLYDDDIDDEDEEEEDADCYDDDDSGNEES
Chain of UniProt P61081 (whole entry, looked up): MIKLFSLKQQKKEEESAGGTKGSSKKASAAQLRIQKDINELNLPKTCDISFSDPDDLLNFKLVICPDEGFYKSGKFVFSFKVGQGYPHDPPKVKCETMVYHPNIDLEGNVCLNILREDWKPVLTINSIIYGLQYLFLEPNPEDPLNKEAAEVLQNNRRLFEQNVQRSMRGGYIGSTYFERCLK
Chain of UniProt P51668 (whole entry, looked up): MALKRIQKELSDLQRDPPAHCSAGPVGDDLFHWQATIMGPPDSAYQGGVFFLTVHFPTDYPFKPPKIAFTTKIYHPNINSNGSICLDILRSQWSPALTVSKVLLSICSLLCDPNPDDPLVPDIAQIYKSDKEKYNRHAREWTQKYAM
Chain of UniProt Q9NPD8 (whole entry, looked up): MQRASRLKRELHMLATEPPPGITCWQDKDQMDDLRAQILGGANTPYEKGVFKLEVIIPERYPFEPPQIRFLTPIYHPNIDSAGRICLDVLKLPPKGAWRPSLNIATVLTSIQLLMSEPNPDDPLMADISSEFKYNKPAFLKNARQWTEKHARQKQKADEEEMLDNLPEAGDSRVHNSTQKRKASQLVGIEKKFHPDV
Chain of UniProt Q969T4 (whole entry, looked up): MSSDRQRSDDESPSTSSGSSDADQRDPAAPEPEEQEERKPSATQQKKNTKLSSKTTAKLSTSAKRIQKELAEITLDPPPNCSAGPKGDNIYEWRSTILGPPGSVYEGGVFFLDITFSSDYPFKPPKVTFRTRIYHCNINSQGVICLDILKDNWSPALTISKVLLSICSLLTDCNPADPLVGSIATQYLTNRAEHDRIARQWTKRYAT
Chain of UniProt Q8N2K1 (whole entry, looked up): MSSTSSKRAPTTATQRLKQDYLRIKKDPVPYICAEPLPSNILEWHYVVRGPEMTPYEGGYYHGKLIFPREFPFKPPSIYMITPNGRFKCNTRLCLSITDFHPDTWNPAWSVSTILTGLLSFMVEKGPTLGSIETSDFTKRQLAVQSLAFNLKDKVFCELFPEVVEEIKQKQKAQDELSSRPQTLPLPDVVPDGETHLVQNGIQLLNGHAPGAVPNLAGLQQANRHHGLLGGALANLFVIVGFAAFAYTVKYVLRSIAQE
Chain of UniProt Q9H832 (whole entry, looked up): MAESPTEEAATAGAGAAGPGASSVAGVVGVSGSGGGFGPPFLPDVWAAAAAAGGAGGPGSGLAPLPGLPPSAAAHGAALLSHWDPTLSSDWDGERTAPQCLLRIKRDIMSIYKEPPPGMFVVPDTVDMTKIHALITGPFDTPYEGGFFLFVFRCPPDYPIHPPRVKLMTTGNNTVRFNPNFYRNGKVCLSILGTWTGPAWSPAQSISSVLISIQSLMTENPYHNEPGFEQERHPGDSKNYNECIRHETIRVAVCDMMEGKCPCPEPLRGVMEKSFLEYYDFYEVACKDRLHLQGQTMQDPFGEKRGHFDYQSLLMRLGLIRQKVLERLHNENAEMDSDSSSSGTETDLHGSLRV
Chain of UniProt Q7Z7E8 (whole entry, looked up): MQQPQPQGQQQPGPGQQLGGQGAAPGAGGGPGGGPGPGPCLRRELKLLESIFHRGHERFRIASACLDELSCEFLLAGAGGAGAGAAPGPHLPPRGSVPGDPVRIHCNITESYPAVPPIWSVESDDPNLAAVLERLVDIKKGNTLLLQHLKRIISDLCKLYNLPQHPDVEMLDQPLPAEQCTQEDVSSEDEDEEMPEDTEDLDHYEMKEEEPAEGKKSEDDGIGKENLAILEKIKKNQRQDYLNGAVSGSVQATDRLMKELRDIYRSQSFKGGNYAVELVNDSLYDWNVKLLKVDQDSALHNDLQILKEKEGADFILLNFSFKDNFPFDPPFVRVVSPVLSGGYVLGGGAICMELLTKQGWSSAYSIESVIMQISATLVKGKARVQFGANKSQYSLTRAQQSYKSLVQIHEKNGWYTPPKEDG
Chain of UniProt O00762 (whole entry, looked up): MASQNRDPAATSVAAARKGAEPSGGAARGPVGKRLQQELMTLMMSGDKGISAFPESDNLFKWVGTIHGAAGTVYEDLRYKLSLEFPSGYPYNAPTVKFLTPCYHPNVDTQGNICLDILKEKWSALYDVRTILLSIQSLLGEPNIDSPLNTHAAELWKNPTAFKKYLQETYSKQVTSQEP
Chain of UniProt P68036 (whole entry, looked up): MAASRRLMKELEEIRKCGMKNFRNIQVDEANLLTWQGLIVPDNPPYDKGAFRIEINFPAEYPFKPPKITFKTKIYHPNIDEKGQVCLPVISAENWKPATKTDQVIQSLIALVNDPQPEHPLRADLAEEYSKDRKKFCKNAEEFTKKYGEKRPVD
Chain of UniProt P63146 (whole entry, looked up): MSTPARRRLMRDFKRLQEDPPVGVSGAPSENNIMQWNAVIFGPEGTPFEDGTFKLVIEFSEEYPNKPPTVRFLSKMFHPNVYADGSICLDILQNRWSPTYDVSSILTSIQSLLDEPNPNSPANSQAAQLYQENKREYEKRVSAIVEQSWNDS

Study 1 — target: CCND1, cyclin fold, Cln2 fusion (human); technique: yeast growth competition, sequencing; medium: yeast; notes: weak parent motif; reference: not given; reading: higher = stronger binding; quantity: normalised enrichment score
Starting sequence: PKMYT1 docking peptide (human); SFEPRNLLSLFED
SFEPRNLLSLWED [F11W]: 1.75
SFEPRNLLSLPED [F11P]: 0.434
SFEPGNLLSLFED [R5G]: 1.69
SFEPRNLLPLFED [S9P]: 0.238
SFEPRNLLSLQED [F11Q]: 0.284
SFEPRNLLSLSED [F11S]: 1.23
SFEPRNLSSLFED [L8S]: 0.3
SFEPRNLVSLFED [L8V]: -0.117
SFEPRNLLSLFEV [D13V]: 0.794
SFEPRNLLQLFED [S9Q]: 0.901
SFEPRNLCSLFED [L8C]: 0.735
SFEQRNLLSLFED [P4Q]: 1.19
SFEPENLLSLFED [R5E]: 1.27
SFEDRNLLSLFED [P4D]: 1.49
SFEPRNLISLFED [L8I]: 0.909
SFEPRNLLVLFED [S9V]: 0.999
SFEPRNLLSLFTD [E12T]: 1.03
SYEPRNLLSLFED [F2Y]: 0.646
SCEPRNLLSLFED [F2C]: 0.629
SFWPRNLLSLFED [E3W]: 0.244
SFEPRNPLSLFED [L7P]: 0.59
SFEPRNLLSLFMD [E12M]: 0.783
SFEPSNLLSLFED [R5S]: 1.23
SFEPRPLLSLFED [N6P]: 1.39
SFEPRNLLSNFED [L10N]: 1.17

Study 2 — technique: yeast two-hybrid; medium: yeast; notes: mostly zero background; reference: not given; reading: higher = stronger interaction; quantity: lacZ reporter activity
Sequence: RYRQMEERITCPICIDSHIRLVFQCGHGACAPCGSALSACPICRQPIRDRIQIF (MIB2 RING domain (UniProt Q96AX9))
UBE2J2 UBC core domain (UniProt Q8N2K1): 0
UBE2M UBC core domain (UniProt P61081): 0
UBE2Q1 UBC core domain (UniProt Q7Z7E8): 0
UBE2C UBC core domain (UniProt O00762): 0
UBE2D1 UBC core domain (UniProt P51668): 0
UBE2E3 UBC core domain (UniProt Q969T4): 0
UBE2O UBC core domain (UniProt Q9C0C9): 0
UBE2L3 UBC core domain (UniProt P68036): 0
BIRC6 UBC core domain (UniProt Q9NR09): 0
UBE2Z UBC core domain (UniProt Q9H832): 0
UBE2T UBC core domain (UniProt Q9NPD8): 0
UBE2I UBC core domain (UniProt P63279): 0
UBE2R2 UBC core domain (UniProt Q712K3): 0
UBE2B UBC core domain (UniProt P63146): 0

Study 3 — technique: DHFR PCA, deep sequencing; medium: yeast; added: (+)-ABA 1.4 µM; reference: wild-type fitted maximum; reading: higher = stronger binding; quantity: relative binding score
Target: ABI1, truncated, D143A, DHFR fusion (Arabidopsis thaliana)
Notes: methotrexate growth selection, single substitutions
Starting sequence: PYL1, truncated, DHFR fusion (Arabidopsis thaliana); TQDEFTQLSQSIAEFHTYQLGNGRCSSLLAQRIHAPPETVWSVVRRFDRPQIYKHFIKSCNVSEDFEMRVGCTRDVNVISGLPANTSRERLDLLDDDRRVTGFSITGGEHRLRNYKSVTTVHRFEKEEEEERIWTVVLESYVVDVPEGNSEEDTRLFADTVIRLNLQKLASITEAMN
D153N: -3.86%
E129M: 47.8%
W41Q: 5.92%
L94K: -5.54%
M68Q: 20.8%
L94A: 0.24%
R24W: 1.25%
Y115K: -1.19%
Q10L: 45%
D65S: 38.6%
D48E: 12.9%
G81Q: -12.7%
E139V: 46.3%
L20P: 65.7%
L166A: 7.68%
G108K: -5.82%
D96R: -1.25%
L28T: 26.9%
L20R: 61.2%
V142Y: -5.17%
D48T: -1.16%
M176Y: 28.1%
T17I: -27.5%
L8S: 7.78%
K126W: 39.1%

Study 4 — technique: protein-binding microarray; form: double-stranded DNA, one strand shown; medium: in vitro; concentration: 250 nM; notes: 60-bp whole probe; added: salmon DNA 0.4 mg/ml; reference: random background probes; reading: higher = stronger binding; quantity: log fluorescence; constant ends, left off below: GCCTAGCAC … GTCTTGATTCGCTTGACGCTGCTG
Target: Interferon regulatory factor 5, full length, phosphomimetic (IRF5, Homo sapiens, UniProt Q13568-2, residues 1-514, K96S/S451D/S453D/S456D/S462D)
CAAGGAACTCAGAGATTTAAGTGCTAG: -0.234 z-score
TCATAGGTTTCACTTTCCACTGTGCTA: 4.97 z-score
GACGGTCTCGGTATCGCGACGTGCTAG: 0.00403 z-score
TTAGGTTCCTGTTTCGGTTAGTGCTAG: 8.77 z-score
TCAAGAGTAGCTTTCTGACTGTGCTAG: 0.442 z-score
TCATTTCTGGTTCCCATACTGTGCTAG: 2.09 z-score
TTCGGACTGCTACTGCTTTAGTGCTAG: -0.264 z-score
CTAGGTATCCTACTGCTTTAGTGCTAG: -0.33 z-score
TCAGAACTGGGGACTGGATTAGTGCTA: -0.765 z-score
GACGATAACAGTTTCGAGACGTGCTAG: 5.79 z-score
TGTGTTGCAGAAACGCCATGGTGCTAG: -0.0332 z-score
ATAGATTTCAGTATCGATTAGTGCTAG: 8.38 z-score
TCATTTTTTTTATTTATACTGTGCTAG: 1.29 z-score
ACTCAGCTCCTCTTCCAGGCGTGCTAG: -0.306 z-score
GACGATTTCAGTTCCGAGGCGTGCTAG: 1.16 z-score
TCACTTTTTTTTTTCCCACTGTGCTAG: 1.12 z-score
TACGGTATCGGGACTGGGGACGTGCTA: 1.02 z-score
TTAGGTATTGGACTGGGTTAGTGCTAG: -0.312 z-score
GACGGTATCCTTTTCCTTACGTGCTAG: 0.596 z-score

Repeated from above (study 3):
D65S: 38.6%
D48E: 12.9%
G81Q: -12.7%
E139V: 46.3%
L20P: 65.7%
L166A: 7.68%
G108K: -5.82%
D96R: -1.25%
L28T: 26.9%
L20R: 61.2%
V142Y: -5.17%
